# Results collected from several papers.
# Each line is one published result; not all experiments were run side by side. “And” joins repeats or separate records; there may be more than shown. ± gives the spread as reported.
SMILES,target,test,test system,setting,scale,quantity,value
CSCC[C@@H](N)C(=O)N[C@H](C)C(=O)N[C@H](C)C(=O)N[C@@H](C(=O)N[C@H](C)C(=O)NCC(=O)N[C@H](CC(C)C)C(=O)N[C@H](Cc1ccc(O)cc1)C(=O)NCC(=O)N[C@H](CC(C)C)C(=O)NCC(=O)N[C@H](CCC(=O)O)C(=O)N[C@H](CC(=O)O)C(=O)N[C@H](CCCNC(=N)N)C(=O)N[C@H](CCC(N)=O)C(=O)N[C@H](Cc1c[nH]cn1)C(=O)N[C@H](CCCNC(=N)N)C(=O)N[C@H](CCCCN)C(=O)N[C@H](CCCCN)C(=O)N[C@H](CCC(N)=O)C(N)=O)C(C)C,"Sh, DEL6-46 (Drosophila melanogaster, UniProt P08510)","ion current, blocker, inside-out patch clamp",,+70 mV,,Hill coefficient,0.86
CN(C)CCCSC(=S)N1CCN(C(=O)/C=C/c2coc3ccccc3c2=O)CC1,"Nucleoprotein (N, Tomato spotted wilt virus, UniProt P25999, R94A/Y184A)","binding, microscale thermophoresis",,500 µM,dose series,MST response,0.864 a.u.
Cc1ccc(/N=N/c2cccc([B-](F)(F)F)c2)cc1.[K+],"Chymotrypsinogen A (Bos taurus, UniProt P00766)","enzyme activity, inhibitor",,with: Suc-AAPF-AMC,baseline: Ki cis over Ki trans,switching factor,11.9 ± 0.5
Cn1nc(CCN)c(=O)c2c(=O)[nH]c(N)nc21,"folP (Bacteria, UniProt P0AC13)",CETSA HiBiT,"Escherichia coli, whole cells",concentration not given,baseline: whole cell over lysate ΔTm,target engagement efficiency,8.5%
CCc1nnc(-c2c(OC)cc(-c3cnc4cc(-c5cnn(C)c5)ccn34)cc2OC)o1,"NR3C1 (Homo sapiens, UniProt P04150)","agonist radioligand, radioligand binding",,"10 µM, SafetyScreen44 GR replicate 2",lower = stronger displacement,remaining binding,113%
CCO[C@H]1[C@H](O)[C@@H](N)[C@@H](O[C@H]2[C@H](O[C@@H]3O[C@H](CO)[C@@H](O[C@H]4O[C@@H](CN)[C@@H](O)[C@H](O)[C@H]4N)[C@H]3O)[C@@H](O)[C@H](N)C[C@@H]2N)O[C@@H]1CO,"SLC6A2 (Homo sapiens, UniProt P23975)",radioligand binding,,"10 µM, 1% DMSO",,specific binding,6%
O=C1NC(=O)c2c1c1cc(F)c[n+]3c1c1c2c2cc(O)ccc2[n]1[Ru-4]312([N]=C=S)[S+]3CC[S+]1CC[S+]2CC3 (stereo not drawn),"EEF2K (Homo sapiens, UniProt O00418)",enzyme activity,,"100 nM, human enzyme, with: 10 µM ATP",baseline: untreated,remaining activity,105%
C[C@H](NCc1ccc(-c2ccc(C(F)(F)F)cc2)cc1)C(N)=O,"NMDA receptor polyamine site, rat","binding, radioligand binding",biochemical,"1 µM, with: [3H]ifenprodil 2.0 nM",,inhibition,2%
C#CCCCCOc1ccc2c(c1)CCCN2C(=O)CCl,"PDE1A (Homo sapiens, UniProt P54750)",mass spectrometry profiling,H460 cell lysate,"100 µM over 10 µM, UniProt P54750",baseline: high over low concentration,reactivity ratio,1.02
OC1Cc2ccccc2CC1N1CCC2(C=Cc3ccc(Br)cc32)CC1 (racemic),"SIGMAR1 (Homo sapiens, UniProt Q99720)",,"rat liver (sigma2), human sigma1",,baseline: Ki sigma2 over Ki sigma1,selectivity ratio,100
O=C(NC1CCN(c2ncnc3[nH]cnc23)CC1)c1cccc(NS(=O)(=O)c2ccc(C(F)(F)F)cc2)c1,"Genome polyprotein, NS5 methyltransferase domain (Zika virus, UniProt Q32ZE1)","NS5 enzyme activity, inhibitor",,1.562 µM,,inhibition,-2.78%
CC(C)CC(O)(CC(C)C)c1cn(C(=O)N2CCCC2)nn1,"Patatin-like phospholipase domain-containing protein 7 (Pnpla7, Mus musculus, UniProt A2AJ88)","probe labelling, inhibitor, refers to: Pnpla7","mouse, brain","i.p., 0.8 mg/kg, 4 h, single peptide","baseline: treated over vehicle mice, lower = stronger inhibition",activity ratio-of-ratios,1.9 and 1.78
N[C@H](C(=O)N1CCCC1)C1CCN(c2nccc3c(-c4ncc(Cl)cc4Cl)cccc23)CC1,"PADI2 (Homo sapiens, UniProt Q9Y2J8)",thermal shift,,9.494 µM,,melting temperature,69 °C and 68.7 °C
Cn1cc(C(=O)Nc2ccccn2)c2ccccc21,"Genome polyprotein, 3C protease (rhinovirus B14, UniProt P03303)","protease activity, SAMDI-MS",,,,Hill slope,1.44
O=C(N[C@@H]1c2ccccc2C[C@H]1N1CCCC1)c1ccc(-c2ccnc3[nH]ccc23)nc1,"NUAK1 (Homo sapiens, UniProt O60285)","binding, competition with immobilised ligand",,3 µM,,remaining binding,0.8%
CCOC(=O)[C@@H]1Cc2c(cc([N+](=O)[O-])cc2[N+](=O)[O-])[C@H](O)[C@]12C(=O)Nc1ccc(Br)cc12,"MARK3 (Homo sapiens, UniProt P27448)","binding, competition with immobilised ligand",,0.1 µM,,remaining binding,16%
C#CCNC(=O)CN(Cc1ccc(-c2ccc(F)c(CN3CCS(=O)(=O)CC3)n2)cc1)C(=O)c1ccc(C2(C(F)(F)F)N=N2)cc1,"ABCB1 (Cricetulus griseus, UniProt P21448)",chemical proteomics,CHO cells overexpressing CB2,10 µM,baseline: untreated,photoaffinity enrichment,> 13 fold
Cc1cnc(Nc2ccc(C3CCN(C)CC3)c(F)c2)nc1Nc1ccc(Cl)c(NS(=O)(=O)C(C)(C)C)c1,"ULK3 (Homo sapiens, UniProt Q6PHR2)",,,,baseline: ULK3 IC50 over BRD4 IC50,selectivity ratio,66 fold
C[n+]1cn([C@@H]2O[C@H](COP(=O)([S-])OP(=O)(O)OP(=O)(O)OP(=O)([S-])OC[C@H]3O[C@@H](n4c[n+](C)c5c(O)nc(N)nc54)[C@H](O)[C@@H]3O)[C@@H](O)[C@H]2O)c2nc(N)nc(O)c21 (stereo partly drawn),"mRNA decapping complex subunit 2 (dcp2, Schizosaccharomyces pombe, UniProt O13828)",single-turnover kinetics,29-nt native-capped RNA substrate,0.25 mM,,kmax,0.28 ± 0.04 min⁻¹
Cc1ccc(N2CC3CCC(C2)N3C)cc1C(=O)N[C@H](C)c1cc(-c2cnn(C)c2)nc2ccccc12,"UCHL1 (Homo sapiens, UniProt P09936)",enzyme activity,,"10 µM, 0.5 h",,remaining activity,101%
CS(C)(=O)=Nc1ccc(-c2ccc(-c3nc4cc(O[C@@H]5CO[C@H]6[C@@H]5OC[C@H]6O)[nH]c4cc3F)cc2)cc1,"VIPR1 (Homo sapiens, UniProt P32241)","calcium signal, antagonist",,10 µM,,inhibition,29%
CN(C)[C@H]1C[C@@]23CC[C@@]4(O2)C(=CC[C@]2(C)[C@@H](c5ccc6ccncc6c5)CC[C@H]24)C=C3[C@@H](O)[C@@H]1O,"MAP4K3 (Homo sapiens, UniProt Q8IVH8)","ATP probe labelling, inhibitor, KiNativ profiling",,0.1 µM,,inhibition,-5.3%
Cc1cc(-c2ccc3ccccc3c2)nnc1NCCN1CCN(C)CC1,"ADORA2A (Homo sapiens, UniProt P29274)",antagonist,,10000 nM,baseline: control,activity,4%
COC(=O)[C@@H](NC(=O)c1nn(Cc2ccc(F)cc2)c2cc(OCCCCNC(=N)N)ccc12)C(C)(C)C,"CNR1 (Homo sapiens, UniProt P21554)",GTPase,,,baseline: FUB,Gi GTP turnover median,108%
"CN(C)S(=O)(=O)N1CCN(C(=O)Cc2ccc(Cl)c(Cl)c2)[C@H]2[C@H]1COC[C@@H]2N1CCCC1 (single isomer, unassigned)","OPRK1 (Homo sapiens, UniProt P41145)",agonist,,0.3333 h,,Emax,96%
CC(C)[C@H]1NC(=O)C[C@H]2/C=C/CCSSC[C@@H](NC1=O)C(=O)N[C@H](Cc1cccc3ccccc13)C(=O)NCC(=O)O2,"Cyclin-dependent kinase 4, with cyclin D3 (CDK4, Homo sapiens, UniProt P11802)","enzyme activity, inhibitor",,10 µM,,inhibition,14.6%
CC#CC(=O)NC[C@H](NC(=O)[C@H](CC1CCCCC1)NC(=O)[C@H](CCC(N)=O)NC(C)=O)C(=O)N[C@@H](CC(C)C)C(=O)N[C@@H](Cc1ccccc1)C(=O)O,"Beta sliding clamp (Escherichia coli, UniProt P0A988, H175G)","binding, isothermal titration calorimetry",,"25 °C, H175G mutant peptide",,ΔH,-9.98 kcal/mol

# Repeated from above:
SMILES,target,test,test system,setting,scale,quantity,value
N[C@H](C(=O)N1CCCC1)C1CCN(c2nccc3c(-c4ncc(Cl)cc4Cl)cccc23)CC1,"PADI2 (Homo sapiens, UniProt Q9Y2J8)",thermal shift,,9.494 µM,,melting temperature,69 °C and 68.7 °C
Cn1cc(C(=O)Nc2ccccn2)c2ccccc21,"Genome polyprotein, 3C protease (rhinovirus B14, UniProt P03303)","protease activity, SAMDI-MS",,,,Hill slope,1.44
O=C(N[C@@H]1c2ccccc2C[C@H]1N1CCCC1)c1ccc(-c2ccnc3[nH]ccc23)nc1,"NUAK1 (Homo sapiens, UniProt O60285)","binding, competition with immobilised ligand",,3 µM,,remaining binding,0.8%
